{"data": "Published values from different studies", "note": "Each numbered part is a random draw from the data of one study; scales do not carry over between parts. Changes are numbered by the printed parent chain."}
{"data": "Set 1", "target": "Interferon regulatory factor 7, full length, phosphomimetic (IRF7, Homo sapiens, UniProt Q92985, residues 1-503, S101K/S471D/S472D/S475D/S476D/S477D/S483D/S484D/S487D)", "technique": "protein-binding microarray", "form": "double-stranded DNA, one strand shown", "matrix": "in vitro", "tested at": "250 nM", "notes": "60-bp whole probe", "with": "salmon DNA 0.4 mg/ml", "relative to": "random background probes", "direction": "higher = stronger binding", "all sequences stand within": "GCCTAGCAC … GTCTTGATTCGCTTGACGCTGCTG", "chain of UniProt Q92985 (whole entry, unmodified, looked up)": "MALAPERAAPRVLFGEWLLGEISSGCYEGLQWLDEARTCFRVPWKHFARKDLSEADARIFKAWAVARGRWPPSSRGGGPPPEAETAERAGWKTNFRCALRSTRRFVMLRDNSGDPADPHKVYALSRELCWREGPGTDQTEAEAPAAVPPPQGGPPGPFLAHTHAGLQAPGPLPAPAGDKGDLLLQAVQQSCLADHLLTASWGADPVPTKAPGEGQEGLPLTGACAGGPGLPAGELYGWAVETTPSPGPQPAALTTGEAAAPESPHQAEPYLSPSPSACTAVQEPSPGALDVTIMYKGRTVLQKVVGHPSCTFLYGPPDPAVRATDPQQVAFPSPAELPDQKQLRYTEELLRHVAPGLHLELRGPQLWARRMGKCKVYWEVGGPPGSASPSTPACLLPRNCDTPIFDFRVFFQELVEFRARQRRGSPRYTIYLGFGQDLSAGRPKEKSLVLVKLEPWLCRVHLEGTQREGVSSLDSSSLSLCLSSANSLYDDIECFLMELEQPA"}
{"Strand": "CTAGTTTTACTTTCTATGTCGTGCTAG", "log fluorescence [z-score]": 2.83}
{"Strand": "GGCGGACTGGACTATCGGGACGTGCTA", "log fluorescence [z-score]": -0.721}
{"Strand": "TATCCTTCCCCTCTAGGTTCGTGCTAG", "log fluorescence [z-score]": 1.51}
{"Strand": "TTTTTTTTGCAAGCTAAAAAAGTGCTA", "log fluorescence [z-score]": 0.667}
{"Strand": "TCATTTTAATTTTTAACACTGTGCTAG", "log fluorescence [z-score]": 1.83}
{"data": "Set 2", "target": "ABI1, truncated, D143A, DHFR fusion (Arabidopsis thaliana)", "technique": "DHFR PCA, deep sequencing", "matrix": "yeast", "notes": "methotrexate growth selection, single substitutions", "with": "(+)-ABA 0.0091 µM", "relative to": "wild-type fitted maximum", "direction": "higher = stronger binding", "starting sequence": "PYL1, truncated, DHFR fusion (Arabidopsis thaliana); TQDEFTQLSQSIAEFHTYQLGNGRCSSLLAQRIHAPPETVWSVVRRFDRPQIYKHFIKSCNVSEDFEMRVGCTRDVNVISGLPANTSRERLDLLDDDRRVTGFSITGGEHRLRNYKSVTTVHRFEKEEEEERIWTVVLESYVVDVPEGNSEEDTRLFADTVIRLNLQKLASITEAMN; partner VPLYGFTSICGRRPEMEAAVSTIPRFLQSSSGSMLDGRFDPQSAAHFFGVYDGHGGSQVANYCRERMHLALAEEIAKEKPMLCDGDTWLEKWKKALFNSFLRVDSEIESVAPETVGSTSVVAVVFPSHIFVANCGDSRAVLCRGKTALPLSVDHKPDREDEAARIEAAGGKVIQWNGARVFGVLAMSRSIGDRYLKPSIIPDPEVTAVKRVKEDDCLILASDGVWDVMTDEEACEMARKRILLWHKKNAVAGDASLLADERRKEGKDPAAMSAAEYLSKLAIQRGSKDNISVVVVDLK"}
{"Substitution": "V142R", "relative binding score [%]": 5.83}
{"Substitution": "Y53A", "relative binding score [%]": -2.32}
{"Substitution": "Y115W", "relative binding score [%]": 17.9}
{"Substitution": "D97C", "relative binding score [%]": 11.8}
{"Substitution": "F103A", "relative binding score [%]": -4.14}
{"Substitution": "Q2I", "relative binding score [%]": 74.5}
{"data": "Set 3", "target": "Prothrombin, mature alpha-thrombin (F2, Homo sapiens, UniProt P00734)", "technique": "aptamer microarray, sandwich", "form": "DNA with 2'F-ANA", "matrix": "in vitro", "tested at": "200 nM", "notes": "whole 15-mer aptamer, many near background", "with": "Cy3 exosite-II aptamer, 400 nM", "direction": "higher = stronger binding", "strand": "GGTTGGTGTGGTTGG"}
{"Modification": "2'F-ANA at 1 2 3 8 12 13 14 15", "mean fluorescence intensity": "103 a.u."}
{"Modification": "2'F-ANA at 1 3 4 9 11 12 13", "mean fluorescence intensity": "219 a.u."}
{"Modification": "2'F-ANA at 2 3 4 5 6 7 8 9 10 11 12 13 15", "mean fluorescence intensity": "54.6 a.u."}
{"Modification": "2'F-ANA at 1 3 4 5 8 9 11 12 13", "mean fluorescence intensity": "71.1 a.u."}
{"Modification": "2'F-ANA at 2 4 7 8 9 11 13 15", "mean fluorescence intensity": "200 a.u."}
{"Modification": "2'F-ANA at 2 4 7 10 13 14 15", "mean fluorescence intensity": "63.4 a.u."}
{"Modification": "2'F-ANA at 1 2 4 8 10 11", "mean fluorescence intensity": "49.5 a.u."}
{"Modification": "2'F-ANA at 1 2 3 4 5 7 11 12 15", "mean fluorescence intensity": "90.5 a.u."}
{"Modification": "2'F-ANA at 6 7 8 13", "mean fluorescence intensity": "454 a.u."}
{"Modification": "2'F-ANA at 4 5 6 7 9 10 12 14", "mean fluorescence intensity": "43.7 a.u."}
{"data": "Single results of other studies"}
{"Molecule": "PhoQ, residues 284 288 289 292 302 303 NLCILV", "target": "PhoP, residues 12 14 15 18 19 NQGLL (Escherichia coli, UniProt P23836)", "assay": "Sort-seq, refers to: YFP reporter", "system": "E. coli", "conditions": "PhoQ-PhoP variant library, with: 10 µM Mg2+", "scale": "relative to: high Mg2+ state, higher = stronger signaling", "quantity": "fold induction", "result": 8.53}
{"note": "Excerpt of the above (set 3):"}
{"Modification": "2'F-ANA at 2 4 7 8 9 11 13 15", "mean fluorescence intensity": "200 a.u."}
{"Modification": "2'F-ANA at 1 2 4 8 10 11", "mean fluorescence intensity": "49.5 a.u."}
{"Modification": "2'F-ANA at 1 3 4 9 11 12 13", "mean fluorescence intensity": "219 a.u."}
